# Assay results gathered from unrelated publications.
# Parts stem from different laboratories: compare values within a part only. Changes are numbered by the printed parent chain.

# Block 1
# Target: Prothrombin, mature alpha-thrombin (F2, Homo sapiens, UniProt P00734)
# Technique: aptamer microarray, sandwich
# Molecule type: DNA with 2'F-ANA
# Matrix: in vitro
# Tested at: 200 nM
# Setting: whole 15-mer aptamer, many near background
# With: Cy3 exosite-II aptamer, 400 nM
# Direction: higher = stronger binding
# Strand: GGTTGGTGTGGTTGG
Modification,mean fluorescence intensity [a.u.]
2'F-ANA at 3 5 7 9 10 11 12 14,85
2'F-ANA at 1 2 3 4 5 6 7 8 14,47.5
2'F-ANA at 3 5 8 9 11 12 14,66.9
2'F-ANA at 1 2 3 5 8 13 15,56
2'F-ANA at 3 5 6 11 13 15,73.3
2'F-ANA at 1 5 6 7 13 15,47
2'F-ANA at 1 2 7 8 10 11 14 15,54.1
2'F-ANA at 1 2 3 7 9 13,157
2'F-ANA at 2 3 4 10 11 12 14,200
2'F-ANA at 4 5 6 8 10 11 13 15,58.5
2'F-ANA at 1 4 6 7 8 13 14 15,49.6
2'F-ANA at 4 6 7 10 12 13 14 15,53.8
2'F-ANA at 1 2 5 6 9 10 12 15,55.3
2'F-ANA at 5 7 8 13 14 15,82
2'F-ANA at 1 3 4 7 8 9 11 13 15,154
2'F-ANA at 1 3 7 8 9 10 11 13 14 15,77.9
2'F-ANA at 1 2 3 4 5 6 7 8 9 10 13 14 15,61.6
2'F-ANA at 2 3 9 10 13 14,248
2'F-ANA at 1 2 3 7 8 15,340

# Block 2
# Target: Interferon regulatory factor 7, full length, phosphomimetic (IRF7, Homo sapiens, UniProt Q92985, residues 1-503, S101K/S471D/S472D/S475D/S476D/S477D/S483D/S484D/S487D)
# Technique: protein-binding microarray
# Molecule type: double-stranded DNA, one strand shown
# Matrix: in vitro
# Tested at: 250 nM
# Setting: 60-bp whole probe
# With: salmon DNA 0.4 mg/ml
# Reference: random background probes
# Direction: higher = stronger binding
# Constant ends, left off below: GCCTAGCAC … GTCTTGATTCGCTTGACGCTGCTG
# Target sequence (chain): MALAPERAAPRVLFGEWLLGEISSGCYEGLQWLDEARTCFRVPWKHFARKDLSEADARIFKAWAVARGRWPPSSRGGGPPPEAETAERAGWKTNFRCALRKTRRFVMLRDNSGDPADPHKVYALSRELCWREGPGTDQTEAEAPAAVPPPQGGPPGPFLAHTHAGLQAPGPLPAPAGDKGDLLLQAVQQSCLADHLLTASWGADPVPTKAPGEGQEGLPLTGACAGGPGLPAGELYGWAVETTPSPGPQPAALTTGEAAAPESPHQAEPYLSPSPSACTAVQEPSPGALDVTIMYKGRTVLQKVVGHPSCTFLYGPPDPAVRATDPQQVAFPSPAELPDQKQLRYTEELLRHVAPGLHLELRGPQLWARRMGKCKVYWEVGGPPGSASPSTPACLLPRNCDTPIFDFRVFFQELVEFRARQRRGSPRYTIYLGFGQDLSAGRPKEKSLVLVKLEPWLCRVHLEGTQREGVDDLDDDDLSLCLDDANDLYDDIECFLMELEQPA
Strand,log fluorescence
GGGCACGTTGTTTAACTTCTGTGCTAG,-0.478 z-score
TTAGGTTTCGGCTATCGGTTAGTGCTA,3.48 z-score
TTAGGACTGCATATCCTTTAGTGCTAG,-0.213 z-score
GACGGTATCCTACAGCTGACGTGCTAG,-0.257 z-score
GACGGTATCGACTATCGCGACGTGCTA,-0.369 z-score
CAGGGAATTCACCTGCTGACGTGCTAG,-0.479 z-score
TTAGATCTGAGTATCGATTAGTGCTAG,0.715 z-score
AACGGTTTCGACACTGGGGACGTGCTA,4.04 z-score
GGCGATATCAGTATCGAGACGTGCTAG,-0.252 z-score
TACGATTTCGGGTATCGAGACGTGCTA,0.825 z-score
GACGGTATCGGACTGGGCACGTGCTAG,-0.358 z-score
GACGATTTCCTTTTCCTGACGTGCTAG,1.67 z-score
CTGCCTGGCCAAGCCCAGATGTGCTAG,-0.369 z-score
ACGTAGAAGGAAGAAGCACGGTGCTAG,-0.424 z-score
GACGGTATTCTTATCCTGACGTGCTAG,-0.194 z-score
TTAGATTTCAAACTGGATTAGTGCTAG,4.53e-06 z-score
TCAAACATCATTTTTCCACTGTGCTAG,0.24 z-score
GACGATCTCAGATTCGAGACGTGCTAG,0.693 z-score
TTAGGTCTCGAACTGGGTTAGTGCTAG,0.474 z-score

# Block 3
# Target: CCNB3, cyclin fold, Cln2 fusion (human)
# Technique: yeast growth competition, sequencing
# Matrix: yeast
# Setting: strong parent motif
# Reference: not given
# Direction: higher = stronger binding
# Parent: BRCA2 docking peptide (human); PSIKRNLLNEFDR; partner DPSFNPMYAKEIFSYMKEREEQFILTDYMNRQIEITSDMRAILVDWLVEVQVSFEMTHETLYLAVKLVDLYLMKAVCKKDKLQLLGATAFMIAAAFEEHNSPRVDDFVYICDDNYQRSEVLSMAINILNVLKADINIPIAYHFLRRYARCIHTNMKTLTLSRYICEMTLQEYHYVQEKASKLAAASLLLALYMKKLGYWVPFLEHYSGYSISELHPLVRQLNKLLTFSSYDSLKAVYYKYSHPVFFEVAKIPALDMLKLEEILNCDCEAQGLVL
Variant,normalised enrichment score
PSIKRNLLFEFDR [N9F],0.598
PSIKINLLNEFDR [R5I],0.561
PSIKRNLLNEFLR [D12L],0.29
PSIKRNLLNEKDR [F11K],0.231
PSIKRNLLNEFDV [R13V],0.582
SSIKRNLLNEFDR [P1S],1.06
PSIKRNLLNEFDW [R13W],1.3
PSIKRKLLNEFDR [N6K],0.176
PSIKGNLLNEFDR [R5G],-0.0302
WSIKRNLLNEFDR [P1W],1.92
PSIKRNLLNEFDF [R13F],0.721
PSIKRNLLNEFDS [R13S],1.34
PSIKRNLWNEFDR [L8W],-0.0989
FSIKRNLLNEFDR [P1F],1.04
PSIKRNLLNEHDR [F11H],0.0979
PSIKRNLLNENDR [F11N],-0.19
PSIKRNLVNEFDR [L8V],0.564
PSIKRNLLVEFDR [N9V],1.26
PSIKENLLNEFDR [R5E],-0.0758

# Mixed results
Molecule,target,test,system,setting,scale,quantity,value
"PhoQ, residues 284 288 289 292 302 303 ASASEQ","PhoP, residues 12 14 15 18 19 LHSVQ (Escherichia coli, UniProt P23836)","Sort-seq, refers to: YFP reporter",E. coli,"PhoQ-PhoP variant library, with: 10 µM Mg2+","reference: high Mg2+ state, higher = stronger signaling",fold induction,1.27

# Some of these lines once more (block 1):
Modification,mean fluorescence intensity [a.u.]
2'F-ANA at 5 7 8 13 14 15,82
2'F-ANA at 1 3 4 7 8 9 11 13 15,154
2'F-ANA at 1 3 7 8 9 10 11 13 14 15,77.9
